# Measurements from different studies.
# Numbered parts are unrelated; each lists some results of a single study.

# Study 1 — method: RNA Bind-n-Seq; molecule type: RNA; medium: in vitro; tested at: 200 nM; notes: whole 134-nt RNA, ends assumed; with: 150 mM KCl; reference: input library; reading: higher = stronger binding
# Target: Fragile X messenger ribonucleoprotein 1, C-terminal low-complexity region (Fmr1, Mus musculus, UniProt P35922)
# Shared flanks, not repeated: GGGAGUUCUACAGUCCGACGAUC … UGGAAUUCUCGGGUGUCAAGG
Sequence,log2 enrichment
UCCUGUGCUACACAUCGUAUGUACCGAAUCGGGGAAAAAAAGGGGAAAGGGGUUUGGGGAAAGUAUUAUGUUACGCCGUUCGGAUCUGCA,0.698
CACAGACAACACGCACCCACCCAGACACAGAGGGAAGGGGUUGGGAUGGGGACAGGGUGCACAGCAGGGCGGGGUAGGACCCCAGCCCCU,1.32
UCAAGUCCUGUGCUACACAUCGUAUGUACCGAAUCGGGAGGGUGGGUUUUUGGGAAAGUAUUAUGUUACGCCGUUCGGAUCUGCACUUCC,1.15
AGUCCUGUGCUACACAUCGUAUGUACCGAAUCGGGUUUUUGGGUUUGGGAAAAAGGGAAAGUAUUAUGUUACGCCGUUCGGAUCUGCACU,-0.116
ACCAUGCAGGUGGGCAUCUUUGGGAAGUGGGGCAAGGGGGGGAUAGGGAGGGGGGUAACACUUUGGGAACAGGUGGUCCCAGUUCGUUUC,0.742
AGUCCUGUGCUACACAUCGUAUGUACCGAAUCGGGUUUUUUUGGGAAAAAGGGUGGGAAAGUAUUAUGUUACGCCGUUCGGAUCUGCACU,0.628
CUGUGCUACACAUCGUAUGUACCGAAUCGGGGUUUUUUUGGUUUUUUUGGUUUUUUUGGGGAAAGUAUUAUGUUACGCCGUUCGGAUCUG,-0.862
CAAGUCCUGUGCUACACAUCGUAUGUACCGAAUCGGUUUGGAAAAAAAGGAAAGGAAAGUAUUAUGUUACGCCGUUCGGAUCUGCACUUC,-0.682
UAACUUUAGAGGAGGAUCUGAUGGAUAUGGCAGUGGACGUGGUUUUGGGGAUGGCUAUAAUGGGUAUGGAGGAGGACCUGGAGGUGGCAA,0.211
GCAGGAAGUAAAAACAAAUGGAAAUGCUUCGGAUAGUGGCAGGGGUGGGGGUUGCUAAGGAAAGGGUGGGAUGGGAGUGGGCAAAGAGUU,0.24
UGGGAGGUGGAUUUCGUUUAUUUUUUUAGCUCAUUUCCAGGGGUGGGAAUUUUUUUUUAAUAUGUGUCAUGAAUAAAGUUGUUUUUGAAA,0.0151
GCAGGAAGUAAAAACAAAUGGAAGUGCUUCGGAUAGUGGCAGGGGUGGGGGUUGCUAAGGAAAGGGUGGGAUGGGAGUGGGUAAAGAGUU,0.596
CAAGUCCUGUGCUACACAUCGUAUGUACCGAAUCGGGGCCCGGGCCCGGGGCCCGGAAAGUAUUAUGUUACGCCGUUCGGAUCUGCACUU,-0.759
GCAGGAAGUAAAAACAAAUGGAAAUGCUUCGGAUAGUGGCAGGGGUGGGGGUUGCUAAGGAAAGGGUGAAAUGGGAGUGGGUAAAGAGUU,0.124

# Study 2 — target: human cyclin D1; effect on: peptide binding; method: yeast competitive growth sequencing; molecule type: peptide; organism: Saccharomyces cerevisiae; strain: cyclin D1-Cln2 fusion; tested at: concentration not given; notes: RxL motif peptides; reading: direction not given
Molecule,binding enrichment score
QDYERRLLRQIVI,-0.0207
PKPLKKLRFDIEG,0.293
ARYKRKLLINDFG,-0.053

# Study 3 — target: UBE2L6 UBC core domain (UniProt O14933); method: yeast two-hybrid; medium: yeast; notes: mostly zero background; reference: not given; reading: higher = stronger interaction
# B1: RNF32 RING domain (UniProt Q9H0A6); chain VQALRRETHECSICLAPLSAAGGQRVGAGRRSREMALLSCSHVFHHACLLALEEFSVGDRPPFHACPLCRSCYQKKILEC
# B2: MARCHF2 RING domain (UniProt Q9P0N8); chain RLLSTVIRALDTPSDGPFCRICHEGANGECLLSPCGCTGTLGAVHKSCLEKWLSSSNTSYCELCHTEFAVEKRPRPLTEWL
# B3: TRIM28 RING domain (UniProt Q13263); chain GAEALELLEHCGVCRERLRPEREPRLLPCLHSACSACLGPAAPAAANSSGDGGAAGDGTVVDCPVCKQQCFSKDIVE
# B4: TRIM32 RING domain (UniProt Q13049); chain NLDALREVLECPICMESFTEEQLRPKLLHCGHTICRQCLEKLLASSINGVRCPFCSKITRITSLTQ
# B5: RNF130 RING domain (UniProt Q86XS8); chain DKETDPDFDHCAVCIESYKQNDVVRILPCKHVFHKSCVDPWLSEHCTCPMCKLNILKALGIV
# B6: RMND5B RING domain (UniProt Q96G75); chain MKCWYHSVFACPILRQQTSDSNPPIKLICGHVISRDALNKLINGGKLKCPYCPMEQNPADGK
# B7: TRIM74 RING domain (UniProt Q86UV6); chain SLLELEDWLQCPICLEVFKESLMLQCGHSYCKGCLVSLSYHLDTKVRCPMCWQVVDGSSSLP
# B8: TRIM47 RING domain (UniProt Q96LD4); chain MDGSGPFSCPICLEPLREPVTLPCGHNFCLACLGALWPHRGASGAGGPGGAARCPLCQEPFPDGLQLR
# B9: TRIM2 RING domain (UniProt Q9C040); chain VRQIDKQFLICSICLERYKNPKVLPCLHTFCERCLQNYIPAHSLTLSCPVCRQTSILPEKGV
# B10: MDM2 RING domain (UniProt Q00987); chain TQDKEESVESSLPLNAIEPCVICQGRPKNGCIVHGKTGHLMACFTCAKKLKKRNKPCPVCRQPIQMIVLTYFP
# B11: ARIH1 RING domain (UniProt Q9Y4X5); chain NTRSSAQDMPCQICYLNYPNSYFTGLECGHKFCMQCWSEYLTTKIMEEGMGQTISCPAHGCDILVDDNTVM
# Target sequence (chain): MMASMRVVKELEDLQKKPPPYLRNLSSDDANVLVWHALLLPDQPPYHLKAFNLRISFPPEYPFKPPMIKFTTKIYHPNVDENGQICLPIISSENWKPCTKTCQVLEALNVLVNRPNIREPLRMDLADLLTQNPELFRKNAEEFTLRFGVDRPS
Molecule,lacZ reporter activity
B1 (RNF32 RING domain),0
B2 (MARCHF2 RING domain),0
B3 (TRIM28 RING domain),0
B4 (TRIM32 RING domain),0
MEEMEEELKCPVCGSFYREPIILPCSHNLCQACARNILVQTPESESPQSHRAAGSGVSDY (TRIM9 RING domain (UniProt Q9C026)),0
SNNDLASLFECPVCFDYVLPPILQCQSGHLVCSNCRPKLTCCPTCRGPLGSIRNLA (SIAH1 RING domain (UniProt Q8IUQ4)),0
B5 (RNF130 RING domain),0
B6 (RMND5B RING domain),0
B7 (TRIM74 RING domain),0
B8 (TRIM47 RING domain),0
PLRRLQEEKLCKICMDRHIAVVFIPCGHLVTCKQCAEAVDRCPMCSAVIDFKQRVF (BIRC8 RING domain (UniProt Q96P09)),0
KITELNPHLMCALCGGYFIDATTIVECLHSFCKTCIVRYLETNKYCPMCDVQVHKTRPLL (PCGF2 RING domain (UniProt P35227)),0
EDVLSKDAGECAICLEELQQGDTIARLPCLCIYHKGCIDEWFEVNRSCPEHPSD (ZNRF2 RING domain (UniProt Q8NHG8)),0
B9 (TRIM2 RING domain),0
B10 (MDM2 RING domain),0
B11 (ARIH1 RING domain),0

# Study 4 — method: RNAcompete; molecule type: RNA; medium: in vitro; tested at: 20 nM; notes: 7-mer, probes averaged, single round; reference: mean of 7-mers; reading: higher = stronger binding
# Target: PABPC1L2, full length, GST fusion (mouse, UniProt A0ABA7IW68)
# Target sequence (chain): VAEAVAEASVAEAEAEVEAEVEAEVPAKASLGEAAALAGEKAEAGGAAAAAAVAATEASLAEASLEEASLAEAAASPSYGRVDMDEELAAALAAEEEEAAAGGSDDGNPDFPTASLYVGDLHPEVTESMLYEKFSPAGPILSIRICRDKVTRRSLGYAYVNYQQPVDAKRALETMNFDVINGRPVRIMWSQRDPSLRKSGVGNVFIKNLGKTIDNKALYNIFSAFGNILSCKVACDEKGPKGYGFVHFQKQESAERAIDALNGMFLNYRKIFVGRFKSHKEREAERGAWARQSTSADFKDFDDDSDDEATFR
Sequence,7-mer Z-score
GGGUAAU,0.151
UCACGAU,-0.108
AGACCUC,-0.389
UUCAAUU,-0.315
AGGGCGU,0.267
AGGUCCA,-0.146
AACCCUG,-0.184
GUCUGAG,-0.113
UCAGGGU,-0.0808
GAUCAAC,-0.186
CAAUAGC,-0.0319
CGUAAAU,0.331
GCCCUUU,-0.0772
GGAAGAU,-0.0428
GAUGAGA,-0.0355
AGCCAGG,0.0189
AGUGCCU,-0.242
GUCGACA,-0.159
AGCACCU,-0.266
UAAGGUU,-0.197
AUGCCGC,-0.238
GGCGUGG,0.126
CAGAAAC,0.914
GUCGUAG,-0.36
GCAGACA,0.249

# Study 5 — method: protein binding microarray; molecule type: double-stranded DNA, one strand shown; medium: in vitro; tested at: not given; reference: not given; reading: higher = stronger binding
# Target: Histone acetyltransferase KAT6A, both winged helices, GST fusion (KAT6A, Homo sapiens, UniProt Q92794, residues 1-181)
# Notes: 8-mer, flanks averaged, mean of 2 arrays, mostly near background
# Residues (chain): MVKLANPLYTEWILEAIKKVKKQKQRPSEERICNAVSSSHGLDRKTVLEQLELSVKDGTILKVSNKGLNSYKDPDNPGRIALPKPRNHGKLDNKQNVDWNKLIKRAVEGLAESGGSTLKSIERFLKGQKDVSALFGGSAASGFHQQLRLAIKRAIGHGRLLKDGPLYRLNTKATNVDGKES
Sequence,E-score
GCCGTGTA,0.266
TAGTGGGA,-0.283
ACCGCTAA,0.201
AACATTCA,-0.0674
GCAATTGC,0.312
AATTTGGT,-0.227
AAGACTGA,-0.119
GTATGATA,-0.0107
GATTTTTA,-0.0538
CGAATTAA,-0.0438
ACGAGACT,-0.131
GATCGTTA,0.0619
CAATTTAC,-0.0351
GTGAGTAA,-0.0602
CCAGGGCC,-0.0163
ACTCGGCG,0.249
CTTTTCGC,0.146
CAAGGGTC,-0.0081
ACTAAAAC,0.0254
CGCGGTAA,0.358
ACTACCTC,-0.19
ATCTGCGC,0.207
GCGCGCAA,0.372
CCTACTAC,0.0299
AAACAACG,0.0913

# Study 6 — method: RNA Bind-n-Seq; molecule type: RNA; medium: in vitro; tested at: 365 nM; reference: no-protein control; reading: higher = stronger binding
# Target: RNA binding protein fox-1 homolog 2, RRM domain, GST-SBP tag (RBFOX2, Homo sapiens, UniProt O43251-10, residues 100-194)
# Notes: natural RNA segment, single round, ends assumed
# Shared flanks, not repeated: GGGAGUUCUACAGUCCGACGAUC … UGGAAUUCUCGGGUGCCAA
# Construct (chain): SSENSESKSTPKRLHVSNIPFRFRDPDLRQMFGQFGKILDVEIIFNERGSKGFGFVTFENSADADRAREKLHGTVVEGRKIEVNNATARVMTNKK
Sequence,RBNS enrichment (R)
AGAGCAUUAAGCUAAAACUAUCAACAUUUUAAACCAAAUUGCCUUAUUUUUCUUCCAAACUUCAUAUAUGUCUAUCAGGUAAUAAUAGGCUUGAAAAUUGAUAUCCUGUG,0.705
UAUUUGAAGCCACACACACUGGUGUAAUAUGCUUAGUACUCUAGGUCAAGGAUUUGUUGGUAAAUGGAACAUUUUAGCAUAGUCAUGAUUUUUGGUUGCCUAGACAUCAG,0.765
CCCCUCCAUAGGGUCUUGCUGCCAGGGACAGGGAUGCUUUCCAGCCUGCAGCAACAGAACACUUGACCUUAAAAGUCUCUUCUGGUCUUUGGAUUAGAAAAGGCUUAUGU,0.304
AUUUAUCUCAUCUGCAGAUGUUGAGAAUGUAUGCAUUAUGUAAAAUGCUUGUUUUUUUAUCCCUGUUGAGUUUUUUUAAUUAAACGACACAAAACUACUACAUUGCCGAU,0.786
UCUCUGAUUUUUUUUUCCUCUCUUUUCAUUAUGCACUGGACAGCCACACACCGUGUACCCAUAGGGCCCCAAAUGUGGGGUCACAUGGUCUUGAAUUUUGUUGGUUACAU,1.39
UCCUCUGAAGCAACUGAAGGCCGAGCCUUUAGAGCAACCAUUGUCAACCUUUGUGGGUCGCCUAAGAGCAUCGCAAACCAGAUAUUUACAUUAUGAUUCAUAACAGUGAC,0.336
UGGGAUGUAGGAUUACCUAGCUAUGGUAAAGGAUUGCCACAGCAAACUGUGACACUGUGUAAUGAGCACUGUUCCCAGCGGCAAUUACAGAGAAAACGAGUGUAAAUUAU,0.235
UUGUUUACACACGAACUGCCACAUCCCCAAGCUCCGUUCUUGCCCCUCGUGUCCUAGGCCCAACCCAGCCUCCCAGACCUCACUUUCCCCAUCAGCAAUACCUGGUGUUC,0.609
AUUGAAAAAAAAAAAAAAACCUACACGAGCACCGUGAUUUCAAGUAAUAAACAGAAAAUGAAACACACAUUGACUCCCGCCUGCUCGCCUAGUGGGGGGAUCUGGCCUUG,0.672
AGUUUCCUGAAGGAUGGAGGGAAUCUUUGUAAACAGAGAUCCACUUGCCAGGAUAAAAAUGUGGCCACCGCUAGAUUUCUCUUACCUACCCGUUGCAACUGGUCCCAGAC,0.469
AUGAUUGCUUAUUUAUGUGUAACAAAUCCCACACAAUCUCAUGGCAACUUCCUUAAUUCCUCCUGGUCAUAUAAUAUAUUUCCAUAGUAUCGUAUACUAUUAUGGAGUAU,0.534
GGAGUGAAUGUAAAAAUGCCACCUCACUCUCAGGCAAGCUUUGUGGGUAAAGACGAGGGGUCAGGGUUCAACUUGACAGUGUACUUCGCUAGGAAGGAGAGGCCCUUGCC,0.451
